Measured values collected from several papers.
Lines come from different studies, so protocols differ.
Target: Inhibitor of nuclear factor kappa-B kinase subunit alpha (CHUK, Homo sapiens, UniProt O15111)

COc1ccc(C(=O)/C=C/c2ccccc2-c2c[nH]c3ccc(C#N)cc23)c(O)c1 — inhibition (enzyme activity, inhibitor; 20 µM): -4%
Nc1ncc(-c2cc(-c3cnn(CC(F)(F)F)c3)ncc2F)nc1C(=O)NC1CNCC(F)C1 (stereo not drawn) — remaining activity (enzyme activity; 1 µM; reference: DMSO control): 111%
CN1CCN(Cc2ccc(NC(=O)c3cccc(C#Cc4cnc(N)c5ncccc45)c3)cc2C(F)(F)F)CC1 — remaining binding (cell-free assay, competition with immobilised ligand; 50 nM): 1.9%
C=C1CCCCCCCCCC(CO)C1=O (stereo not drawn) — remaining signal (cell-free assay; 10 µM): 87%
Cc1nc2c(F)cc(-c3nc(Nc4ccc(CNC(=O)CCCCCCC(=O)NO)cc4)ncc3F)cc2n1C(C)C — inhibition (enzyme activity, inhibitor; 1 µM): 80%
COc1cc(Nc2nc(C)cc(-c3cnn4nc(OC)ccc34)n2)cc(C(F)(F)F)c1 — remaining binding (KINOMEscan; 1 µM, IKK-alpha; reference: DMSO): 95%
Cc1cccc(O[C@H]2CCC[C@@H](C(C)CNCc3ccncc3)C2)c1 (relative stereo) — inhibition (enzyme activity, inhibitor; 1 µM): 34%
O=C=[N][Ru-4]123([n]4c5ccc(O)cc5c5c6c(c7cc(F)c[n+]1c7c54)C(=O)NC6=O)[S+]1CC[S+]2CC[S+]3CC1 (stereo not drawn) — remaining activity (enzyme activity; 100 nM, human enzyme, together with: 10 µM ATP; reference: untreated): 119%
NC(=O)[C@@H](O)C[C@H]1CCc2sc3ncnc(O[C@H]4CC[C@H](N5CCOCC5)CC4)c3c21 — inhibition (enzyme activity, inhibitor; 10 µM): 9%
CNC(=O)C1CCN(c2cc(C)c(F)cc2NC(=O)c2ccc(-c3cc(O)ccc3C)c(C)c2)CC1 — remaining binding (binding, competition with immobilised ligand; 1 µM): 100%
COc1c(Cl)cccc1Nc1c(-c2ccncc2C#C[C@@]2(C)CCCN2C(=O)/C=C/CN(C)C)[nH]c2c1C(=O)NCC2 — remaining binding (cell-free assay, competition with immobilised ligand; 3 µM): 75%
C=CC(=O)Nc1cccc(-c2cnc3[nH]cc(C(=O)NC(C)(C)C)c3n2)c1 — inhibition (enzyme activity, inhibitor; 0.1 µM): 1%
COc1c(OCCCN2CCOCC2)ccc2c1N=C(NC(=O)c1cnc(N)nc1)N1CCN=C21 — remaining activity (kinase activity, inhibitor; 1 µM; reference: untreated control): 109%
COc1ccc(O)cc1-c1c[nH]c2ncc(-c3cncc(C(=O)N(C)C)c3)cc12 — inhibition (binding, competition with immobilised ligand; 0.2 µM): -9.02%
Cc1cnc2nc1Nc1cccc(c1)COC/C=C/COCc1cc(ccc1OCCN1CCOCC1)N2 — remaining binding (binding, competition with immobilised ligand; 0.1 µM): 94%
CS(=O)(=O)Nc1cccc(-c2csc3cnc(Nc4ccc(N5CCN(CCCCCOc6cccc7c6C(=O)N(C6CCC(=O)NC6=O)C7=O)CC5)cc4)nc23)c1 (stereo not drawn) — inhibition (probe labelling, inhibitor, KiNativ chemoproteomics; MOLT-4; 1 µM): -23.7%
CN1CCN(Cc2ccc(-c3ccc(CO[C@H]4CCC[C@@H]4NC(=O)c4cc(-c5cnn(C)c5)cnc4N)cc3)cc2)CC1 — inhibition (enzyme activity, inhibitor; 0.1 µM): 3%
COc1ccc(NC(=O)Nc2ccc3c(c2)C(=O)N(C(C)CO)CC(C)C(CN(C)Cc2ccc4c(c2)OCO4)O3)cc1 (stereo not drawn) — remaining activity (kinase activity, KinaseProfiler; 0.03 µM, species human; reference: control): 101%
C=CC(=O)Nc1cc(-c2nn(C3CCN(CCNC(=O)[C@H](C)CCC45CC6CC(CC(C6)C4)C5)CC3)c3ncnc(N)c23)ccc1Oc1ccccc1 — inhibition (inhibitor, KiNativ profiling; biochemical; 2 µM): 8.5%
Nc1ncc2c(n1)-c1c([nH]c3ccc(C4=CCOCC4)cc13)CCC2 — remaining binding (binding, competition with immobilised ligand; 1 µM): 77%
Fc1cncc(-c2ccc3[nH]c4ncnc(N[C@H]5CC[C@H](N6CCOCC6)CC5)c4c3c2)c1 — inhibition (enzyme activity, inhibitor, radiometric; 1 µM): 68%
